Assay results gathered from unrelated publications.
Every numbered part comes from another study and shows a few of its results, in no order. Substitutions count along the parent as printed.

Set 1 — target: CCND2, cyclin fold, Cln2 fusion (human); method: yeast growth competition, sequencing; medium: yeast; setting: weak parent motif; reference: not given; direction: higher = stronger binding; endpoint: normalised enrichment score
Starting sequence: MICAL3 docking peptide (human); LQLRRQLSFSEDS; partner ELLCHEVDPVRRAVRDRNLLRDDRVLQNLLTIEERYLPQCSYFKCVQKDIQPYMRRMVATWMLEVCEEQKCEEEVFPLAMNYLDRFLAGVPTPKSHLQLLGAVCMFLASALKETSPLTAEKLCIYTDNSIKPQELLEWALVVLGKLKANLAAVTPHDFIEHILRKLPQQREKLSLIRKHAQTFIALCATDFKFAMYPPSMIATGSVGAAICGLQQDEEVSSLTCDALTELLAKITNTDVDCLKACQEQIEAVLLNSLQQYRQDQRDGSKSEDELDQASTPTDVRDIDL
LQLRRQLSYSEDS [F9Y]: -0.0153
LQLIRQLSFSEDS [R4I]: 0.317
LQLRRILSFSEDS [Q6I]: 0.389
LQSRRQLSFSEDS [L3S]: 0.445
LQLRRPLSFSEDS [Q6P]: 0.0256
LQLRRQLSFHEDS [S10H]: 0.0504
LQLRRQLSFLEDS [S10L]: 0.216

Set 2 — method: RNAcompete; molecule type: RNA; medium: in vitro; tested at: 20 nM; setting: 7-mer, probes averaged, single round; reference: mean of 7-mers; direction: higher = stronger binding; endpoint: 7-mer Z-score
Target: PABPC1L2, full length, GST fusion (mouse, UniProt A0ABA7IW68)
Residues (chain): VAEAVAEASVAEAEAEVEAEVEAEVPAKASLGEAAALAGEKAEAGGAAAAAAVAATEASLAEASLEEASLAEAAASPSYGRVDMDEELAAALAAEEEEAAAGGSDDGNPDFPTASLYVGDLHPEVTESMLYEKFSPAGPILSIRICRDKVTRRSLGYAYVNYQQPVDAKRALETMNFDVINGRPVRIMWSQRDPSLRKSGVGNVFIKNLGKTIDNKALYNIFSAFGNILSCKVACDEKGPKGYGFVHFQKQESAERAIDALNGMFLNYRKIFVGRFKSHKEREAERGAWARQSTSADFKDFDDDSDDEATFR
UACUUCA: -0.215
GUGACCG: -0.124
AUGUAAA: 0.948
AAGGUGA: 0.372
UAGCGCC: -0.0319
GCGCAUA: 0.0134
GGGGAAA: 0.729
UCGUGGU: -0.313
AUCCCCC: -0.527
AUGAGAU: 0.0352

Set 3 — method: protein binding microarray; molecule type: double-stranded DNA, one strand shown; medium: in vitro; tested at: not given; reference: not given; direction: higher = stronger binding; endpoint: E-score
Target: Histone acetyltransferase KAT6A, both winged helices, GST fusion (KAT6A, Homo sapiens, UniProt Q92794, residues 1-181)
Setting: 8-mer, flanks averaged, mean of 2 arrays, mostly near background
Residues (chain): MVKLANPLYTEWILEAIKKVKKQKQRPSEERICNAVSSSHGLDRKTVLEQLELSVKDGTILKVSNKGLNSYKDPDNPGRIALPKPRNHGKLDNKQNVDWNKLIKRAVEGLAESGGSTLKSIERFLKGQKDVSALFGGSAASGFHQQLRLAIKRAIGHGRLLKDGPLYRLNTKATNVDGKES
CATATAGA: 0.0219
ACTCCGTA: 0.245
AGTAAATA: -0.0496
ATAATTGA: -0.00046
CCCTTTAG: -0.225
AGCGGCAC: 0.249
CGATGTCC: 0.204
AATAGCAC: -0.0565

Other studies, line by line
PhoQ, residues 284 288 289 292 302 303 ALSMDL — fold induction (PhoP, residues 12 14 15 18 19 AWHSL (Escherichia coli, UniProt P23836); Sort-seq, measured: YFP reporter; E. coli; PhoQ-PhoP variant library, added: 10 µM Mg2+; reference: high Mg2+ state, higher = stronger signaling): 2.11
